Experimental data pooled from the literature.
Compare with care: the assays were run in different laboratories. “And” joins repeats or separate records; there may be more than shown.
OSBP: Oxysterol-binding protein 1 (OSBP, Homo sapiens, UniProt P22059)
UniProt P22059, sequence (whole entry, looked up): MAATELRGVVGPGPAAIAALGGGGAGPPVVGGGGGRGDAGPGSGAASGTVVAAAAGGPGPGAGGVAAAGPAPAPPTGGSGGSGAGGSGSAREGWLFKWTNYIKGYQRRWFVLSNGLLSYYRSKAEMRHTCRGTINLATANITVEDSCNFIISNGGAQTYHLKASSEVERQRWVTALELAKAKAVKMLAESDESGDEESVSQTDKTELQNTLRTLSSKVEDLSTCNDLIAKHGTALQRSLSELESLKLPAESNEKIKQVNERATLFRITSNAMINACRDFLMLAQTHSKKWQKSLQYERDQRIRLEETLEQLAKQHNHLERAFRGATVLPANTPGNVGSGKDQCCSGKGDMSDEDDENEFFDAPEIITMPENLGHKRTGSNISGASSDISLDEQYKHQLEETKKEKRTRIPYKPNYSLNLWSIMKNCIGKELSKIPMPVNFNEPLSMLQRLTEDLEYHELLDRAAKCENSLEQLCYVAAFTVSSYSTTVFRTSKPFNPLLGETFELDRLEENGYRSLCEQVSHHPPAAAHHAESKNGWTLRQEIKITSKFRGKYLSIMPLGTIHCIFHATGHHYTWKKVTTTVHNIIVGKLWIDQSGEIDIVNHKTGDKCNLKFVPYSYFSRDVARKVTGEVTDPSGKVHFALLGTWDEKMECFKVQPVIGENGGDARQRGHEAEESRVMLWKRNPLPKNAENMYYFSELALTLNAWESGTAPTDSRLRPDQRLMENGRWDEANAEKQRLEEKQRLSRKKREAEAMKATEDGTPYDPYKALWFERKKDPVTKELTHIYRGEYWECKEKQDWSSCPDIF
HDAC6: Protein deacetylase HDAC6 (HDAC6, Homo sapiens, UniProt Q9UBN7)
UniProt Q9UBN7, sequence (whole entry, looked up): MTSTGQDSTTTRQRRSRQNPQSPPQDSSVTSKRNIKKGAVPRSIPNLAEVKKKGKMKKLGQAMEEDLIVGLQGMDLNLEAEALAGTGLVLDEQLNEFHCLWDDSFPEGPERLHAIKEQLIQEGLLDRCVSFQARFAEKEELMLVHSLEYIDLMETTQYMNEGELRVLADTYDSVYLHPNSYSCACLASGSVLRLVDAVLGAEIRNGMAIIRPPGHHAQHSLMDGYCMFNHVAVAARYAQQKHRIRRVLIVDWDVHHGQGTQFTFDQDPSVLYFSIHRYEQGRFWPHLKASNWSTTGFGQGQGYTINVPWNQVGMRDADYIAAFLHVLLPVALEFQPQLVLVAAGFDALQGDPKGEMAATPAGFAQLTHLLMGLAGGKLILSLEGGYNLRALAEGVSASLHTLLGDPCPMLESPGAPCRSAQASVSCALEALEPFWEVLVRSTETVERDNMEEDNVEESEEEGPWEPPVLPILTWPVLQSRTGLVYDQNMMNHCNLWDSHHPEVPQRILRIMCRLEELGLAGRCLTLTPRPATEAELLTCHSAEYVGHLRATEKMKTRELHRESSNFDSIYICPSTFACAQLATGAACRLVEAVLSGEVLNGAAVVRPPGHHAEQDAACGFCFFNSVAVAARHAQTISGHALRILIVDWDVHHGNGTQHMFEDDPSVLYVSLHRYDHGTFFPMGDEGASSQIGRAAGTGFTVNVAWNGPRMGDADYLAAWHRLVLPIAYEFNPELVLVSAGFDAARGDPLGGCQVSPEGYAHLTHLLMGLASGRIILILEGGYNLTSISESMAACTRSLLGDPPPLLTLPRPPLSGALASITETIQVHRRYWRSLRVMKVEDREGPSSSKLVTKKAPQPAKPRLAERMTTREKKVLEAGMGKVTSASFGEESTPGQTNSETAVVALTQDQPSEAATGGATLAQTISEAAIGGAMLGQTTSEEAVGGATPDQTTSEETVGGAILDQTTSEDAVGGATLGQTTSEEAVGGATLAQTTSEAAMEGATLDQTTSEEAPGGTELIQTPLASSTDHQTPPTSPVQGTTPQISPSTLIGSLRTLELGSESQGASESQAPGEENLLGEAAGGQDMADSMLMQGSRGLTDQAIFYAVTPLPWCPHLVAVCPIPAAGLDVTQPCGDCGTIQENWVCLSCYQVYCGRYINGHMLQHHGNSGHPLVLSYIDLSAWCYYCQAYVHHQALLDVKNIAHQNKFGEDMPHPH
ADRA2C: Alpha-2C adrenergic receptor (ADRA2C, Homo sapiens, UniProt P18825)
UniProt P18825, sequence (whole entry, looked up): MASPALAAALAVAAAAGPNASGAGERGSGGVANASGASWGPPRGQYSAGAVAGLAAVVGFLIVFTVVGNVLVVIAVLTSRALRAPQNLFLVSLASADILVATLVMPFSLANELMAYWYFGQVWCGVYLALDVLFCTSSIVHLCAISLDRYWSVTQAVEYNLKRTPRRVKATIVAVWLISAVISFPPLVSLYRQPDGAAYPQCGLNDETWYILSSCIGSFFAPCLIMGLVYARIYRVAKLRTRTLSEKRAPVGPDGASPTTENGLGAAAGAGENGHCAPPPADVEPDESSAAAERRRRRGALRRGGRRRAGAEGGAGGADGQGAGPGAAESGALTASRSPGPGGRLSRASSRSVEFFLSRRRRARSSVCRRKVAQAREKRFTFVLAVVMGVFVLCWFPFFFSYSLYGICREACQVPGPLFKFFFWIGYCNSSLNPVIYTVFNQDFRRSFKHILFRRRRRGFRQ
HDAC8: Histone deacetylase 8 (HDAC8, Homo sapiens, UniProt Q9BY41)
UniProt Q9BY41, sequence (whole entry, looked up): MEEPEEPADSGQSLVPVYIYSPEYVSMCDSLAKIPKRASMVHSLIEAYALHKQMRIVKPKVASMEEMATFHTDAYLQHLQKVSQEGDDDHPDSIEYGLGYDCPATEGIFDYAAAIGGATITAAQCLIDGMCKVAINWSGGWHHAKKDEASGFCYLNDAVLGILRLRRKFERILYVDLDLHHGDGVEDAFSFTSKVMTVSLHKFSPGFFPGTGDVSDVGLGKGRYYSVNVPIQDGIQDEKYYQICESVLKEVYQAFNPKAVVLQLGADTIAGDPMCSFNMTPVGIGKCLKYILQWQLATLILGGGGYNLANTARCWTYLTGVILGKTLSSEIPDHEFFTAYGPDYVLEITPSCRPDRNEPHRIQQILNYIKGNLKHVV
ADRA2B: Alpha-2B adrenergic receptor (ADRA2B, Homo sapiens, UniProt P18089)
UniProt P18089, sequence (whole entry, looked up): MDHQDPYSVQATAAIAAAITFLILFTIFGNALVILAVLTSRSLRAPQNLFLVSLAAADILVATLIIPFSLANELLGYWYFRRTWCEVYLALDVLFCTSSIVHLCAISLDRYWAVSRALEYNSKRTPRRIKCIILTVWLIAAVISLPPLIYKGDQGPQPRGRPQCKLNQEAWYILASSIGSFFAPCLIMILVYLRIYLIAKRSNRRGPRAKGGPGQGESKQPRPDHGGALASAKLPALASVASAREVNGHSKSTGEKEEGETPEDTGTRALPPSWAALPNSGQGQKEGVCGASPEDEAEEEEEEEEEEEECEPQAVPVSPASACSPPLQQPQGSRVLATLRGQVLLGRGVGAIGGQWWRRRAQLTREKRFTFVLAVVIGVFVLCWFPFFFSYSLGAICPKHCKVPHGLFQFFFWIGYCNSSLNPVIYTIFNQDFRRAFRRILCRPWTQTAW
AKT1: RAC-alpha serine/threonine-protein kinase (AKT1, Homo sapiens, UniProt P31749)
UniProt Q5BJF2, sequence (whole entry, looked up): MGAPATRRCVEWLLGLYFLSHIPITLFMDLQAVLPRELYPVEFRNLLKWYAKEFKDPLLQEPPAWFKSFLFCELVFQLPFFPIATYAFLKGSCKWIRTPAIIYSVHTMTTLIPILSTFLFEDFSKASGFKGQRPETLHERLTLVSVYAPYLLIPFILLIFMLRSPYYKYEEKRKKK
UniProt P14416, sequence (whole entry, looked up): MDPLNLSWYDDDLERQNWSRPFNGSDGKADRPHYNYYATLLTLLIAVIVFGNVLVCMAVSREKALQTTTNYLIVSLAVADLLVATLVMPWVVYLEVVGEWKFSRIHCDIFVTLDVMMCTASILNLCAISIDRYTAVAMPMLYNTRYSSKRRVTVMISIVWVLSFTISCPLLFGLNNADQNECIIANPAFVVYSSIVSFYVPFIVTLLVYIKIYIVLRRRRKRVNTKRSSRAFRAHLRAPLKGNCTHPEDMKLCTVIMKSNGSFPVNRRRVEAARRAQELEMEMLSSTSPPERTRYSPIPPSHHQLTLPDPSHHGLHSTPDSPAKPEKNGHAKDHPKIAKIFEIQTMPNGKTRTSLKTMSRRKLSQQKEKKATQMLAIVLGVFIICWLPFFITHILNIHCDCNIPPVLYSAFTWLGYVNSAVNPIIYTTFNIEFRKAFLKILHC
UniProt P31749, sequence (whole entry, looked up): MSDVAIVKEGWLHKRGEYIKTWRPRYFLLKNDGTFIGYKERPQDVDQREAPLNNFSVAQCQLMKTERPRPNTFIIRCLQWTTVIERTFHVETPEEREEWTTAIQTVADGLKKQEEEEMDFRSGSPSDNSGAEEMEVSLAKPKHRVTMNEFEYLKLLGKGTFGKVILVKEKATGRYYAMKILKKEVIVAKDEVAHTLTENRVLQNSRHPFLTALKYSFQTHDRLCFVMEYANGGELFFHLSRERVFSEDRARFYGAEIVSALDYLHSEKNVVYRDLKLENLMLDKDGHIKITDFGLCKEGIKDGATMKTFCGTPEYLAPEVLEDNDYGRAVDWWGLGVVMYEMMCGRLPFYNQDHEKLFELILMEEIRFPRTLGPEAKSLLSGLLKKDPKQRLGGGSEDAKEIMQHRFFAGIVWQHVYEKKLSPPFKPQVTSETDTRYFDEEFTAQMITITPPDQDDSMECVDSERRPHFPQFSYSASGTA
UniProt Q13547, sequence (whole entry, looked up): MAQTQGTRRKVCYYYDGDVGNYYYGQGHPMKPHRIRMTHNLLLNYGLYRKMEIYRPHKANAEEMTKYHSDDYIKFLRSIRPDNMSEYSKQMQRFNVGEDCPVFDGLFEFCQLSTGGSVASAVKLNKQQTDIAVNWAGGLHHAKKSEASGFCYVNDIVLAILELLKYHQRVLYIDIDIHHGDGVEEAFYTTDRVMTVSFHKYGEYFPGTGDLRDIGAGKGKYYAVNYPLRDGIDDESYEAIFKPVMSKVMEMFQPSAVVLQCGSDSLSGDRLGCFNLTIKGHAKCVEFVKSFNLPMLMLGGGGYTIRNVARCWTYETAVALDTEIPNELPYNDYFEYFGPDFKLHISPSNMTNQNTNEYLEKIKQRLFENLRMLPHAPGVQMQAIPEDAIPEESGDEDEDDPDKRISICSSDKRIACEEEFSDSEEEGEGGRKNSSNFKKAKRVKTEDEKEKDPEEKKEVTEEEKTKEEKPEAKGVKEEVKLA

The Ki of COc1ccc(CN2CC(COc3ccc(F)cc3)CC(F)(F)C2)cc1F (stereo not shown) is reported as 140 nM (D(4) dopamine receptor (DRD4, Homo sapiens, UniProt P21917); ligand displacement, radioligand; cell membranes).
For CCOc1ccc(C(=O)CC(SCc2ccc(Cl)cc2)C(=O)O)cc1 (stereo not shown), the Ki was 238000 nM (OSBP; ligand displacement, FP).
With O=C(NO)c1cncc(OS(=O)(=O)Oc2ccc(-n3ccnc3)cc2)c1 the Ki was 28 nM (HDAC6; enzyme activity, inhibitor, fluorescence).
With CCOc1ccc(C(=O)CC(SCc2cccc(Br)c2)C(=O)O)cc1 (stereo not shown) the Ki was 99000 nM (OSBP; ligand displacement, FP).
For Cc1cc(Oc2ncccc2CN2CCN(c3ccccc3Cl)CC2)ccc1-c1c(C)c(=O)[nH]c(=O)n1C, the Ki was ~11 nM and 11 nM (ADRA2C; ligand displacement, radioligand).
Cc1ccc2[nH]c(=O)c(CNC3CCCCC3)cc2c1 has a Ki of 468 nM (Alpha-1A adrenergic receptor (ADRA1A, Homo sapiens, UniProt P35348); ligand displacement in cells).
O=C1CCc2ccccc2O1 gave a Ki of 2800 nM (Carbonic anhydrase 12 (CA12, Homo sapiens, UniProt O43570); enzyme activity, inhibitor, stopped-flow).
The Ki of Cc1cc(Oc2ncccc2CN2CCN(c3cccc(Cl)c3)CC2)ccc1-c1c(C)c(=O)[nH]c(=O)n1C is reported as 19.4 nM (ADRA2C; ligand displacement, radioligand).
The Ki of O=C(NO)c1cc(F)cc(OS(=O)(=O)Oc2ccccc2)c1 is reported as 698 nM (HDAC8; enzyme activity, inhibitor, fluorescence).
With Cc1cc(Oc2ncccc2CN2CCN(c3ncccc3C(F)(F)F)CC2)ccc1-c1c(C)c(=O)[nH]c(=O)n1C the Ki was 29 nM (ADRA2B; ligand displacement, radioligand).
C[C@@H]1O[C@@H](Oc2cc(O)c3c(=O)c(O)c(-c4ccc(O)c(O)c4)oc3c2)[C@H](O)[C@H](O)[C@H]1O gave a Ki of 45200 nM (Replicase polyprotein 1ab, main protease (Feline coronavirus, UniProt Q98VG9); enzyme activity, inhibitor, fluorescence).
Cc1cc(Oc2ncccc2CN2CCN(c3ccccc3)CC2)ccc1-c1c(C)c(=O)[nH]c(=O)n1C gave a Ki of 96.7 nM (ADRA2B; ligand displacement, radioligand).
For N#CC[C@@]12C[C@@H]1[C@@H](n1cnc3c(NCCCCCCc4ccccc4)nc(I)nc31)[C@H](O)[C@@H]2O, the Ki was 2930 nM (Sodium-dependent serotonin transporter (SLC6A4, Homo sapiens, UniProt P31645); ligand displacement, radioligand; cell membranes).
CCOc1ccc(C(=O)CC(SCc2ccc(Cl)cc2)C(=O)O)cc1OCC (stereo not shown) gave a Ki of 250000 nM (AKT1; ligand displacement, FP).
O=C(NO)c1cncc(OS(=O)(=O)Oc2ccc(C(F)(F)F)cc2)c1 gave a Ki of 1970 nM (Histone deacetylase 5 (HDAC5, Homo sapiens, UniProt Q9UQL6); enzyme activity, inhibitor, fluorescence).
Cc1cc(Oc2ncccc2CN2CCN(c3ccccc3C(F)(F)F)CC2)ccc1-c1c(C)c(=O)[nH]c(=O)n1C has a Ki of 107 nM (ADRA2B; ligand displacement, radioligand).
The Ki of O=C(/C=C/c1cccc(OS(=O)(=O)Oc2ccccc2)c1)NO is reported as 153 nM (Histone deacetylase 1 (HDAC1, Homo sapiens, UniProt Q13547); enzyme activity, inhibitor, fluorescence).
For CCCCC(=O)Nc1ccc(-c2ccc3ncn(CCC)c(=O)c3c2)cn1, the Ki was > 20000 nM (Phosphatidylinositol 5-phosphate 4-kinase type-2 alpha (PIP4K2A, Homo sapiens, UniProt P48426); enzyme activity, inhibitor, radiometric).
C#CCN(CCCN1CCN(C2CCCCC2)CC1)Cc1ccc(C(=O)c2ccc([N+](=O)[O-])cc2)cc1 has a Ki of 3.8 nM and 3.78 nM and < 5 nM (Sigma intracellular receptor 2 (TMEM97, Homo sapiens, UniProt Q5BJF2); ligand displacement, radioligand; cell membranes).
For COc1ccc(Cl)cc1N1CCN(Cc2cccnc2Oc2ccc(-c3c(C)c(=O)[nH]c(=O)n3C)c(C)c2)CC1, the Ki was 100 nM (ADRA2B; ligand displacement, radioligand).
Cc1cc(OS(=O)(=O)Oc2ccc(-n3ccnc3)cc2)cc(C(=O)NO)c1 gave a Ki of 1340 nM (HDAC8; enzyme activity, inhibitor, fluorescence).
For CNC(=O)[C@@]12C[C@@H]1[C@@H](n1ccc3c(NC)ncnc31)[C@H](O)[C@@H]2O, the Ki was > 10000 nM (Delta-type opioid receptor (OPRD1, Homo sapiens, UniProt P41143); ligand displacement, radioligand).
With Cc1cc(Oc2ncccc2CN2CCN(Cc3ccccc3Cl)CC2)ccc1-c1c(C)c(=O)[nH]c(=O)n1C the Ki was 72.7 nM (ADRA2B; ligand displacement, radioligand).
For Cc1cc(OCCCS(C)(=O)=O)cc(C)c1-c1cccc(COc2ccc3c(c2)OC[C@H]3CC(=O)O)c1, the Ki was 7770 nM (Hepatic sodium/bile acid cotransporter (SLC10A1, Homo sapiens, UniProt Q14973); transporter uptake, inhibitor).
The Ki of Cc1nc2n(c(=O)c1CCN1CCC(c3noc4cc(F)ccc34)CC1)CCCC2O (stereo not shown) is reported as 7.39 nM and 8.18 nM (D(2) dopamine receptor (DRD2, Homo sapiens, UniProt P14416); cell-free assay).
For N#C[C@@]12C[C@@H]1[C@@H](n1cnc3c(NCc4cccc(Cl)c4)nc(I)nc31)[C@H](O)[C@@H]2O, the Ki was 39.1 nM (5-hydroxytryptamine receptor 2C (HTR2C, Homo sapiens, UniProt P28335); ligand displacement, radioligand).
The Ki of O=C(NO)c1cc(F)cc(OS(=O)(=O)Oc2ccc(C(F)(F)F)cc2)c1 is reported as 251 nM (HDAC6; enzyme activity, inhibitor, fluorescence).
For CCOc1cccc(C(=O)CC(SCc2cccc(Br)c2)C(=O)O)c1 (stereo not shown), the Ki was 107000 nM (OSBP; ligand displacement, FP).
For CNC(=O)[C@H]1O[C@@H](n2cnc3c(NC)nc(C#Cc4ccc(Cl)s4)nc32)[C@H](O)[C@@H]1O, the Ki was > 10000 nM (Translocator protein (Tspo, Rattus norvegicus, UniProt P16257); ligand displacement, radioligand).
For Cc1cc(C(C)(C)C)ccc1OS(=O)(=O)Oc1cccc(C(=O)NO)c1, the Ki was 1480 nM (HDAC8; enzyme activity, inhibitor, fluorescence).
The Ki of COc1cccc(C(=O)CC(SCc2ccc(Cl)cc2)C(=O)O)c1 (stereo not shown) is reported as 141000 nM (AKT1; ligand displacement, FP).
Cc1ccc(N2CCN(Cc3cccnc3Oc3ccc(-c4c(C)c(=O)[nH]c(=O)n4C)c(C)c3)CC2)cc1C gave a Ki of 108 nM (ADRA2C; ligand displacement, radioligand).
For COc1ccc(OS(=O)(=O)Oc2cccc(C(=O)NO)c2)cc1OC, the Ki was 28 nM (HDAC6; enzyme activity, inhibitor, fluorescence).
With CCOc1cccc(C(=O)CC(SCc2ccc(Cl)cc2)C(=O)O)c1 (stereo not shown) the Ki was 116000 nM (OSBP; ligand displacement, FP).
